Measurements from different studies.
± gives the spread as reported.
DPP4: Dipeptidyl peptidase 4 (DPP4, Homo sapiens, UniProt P27487)
UniProt P27487, sequence (whole entry, looked up): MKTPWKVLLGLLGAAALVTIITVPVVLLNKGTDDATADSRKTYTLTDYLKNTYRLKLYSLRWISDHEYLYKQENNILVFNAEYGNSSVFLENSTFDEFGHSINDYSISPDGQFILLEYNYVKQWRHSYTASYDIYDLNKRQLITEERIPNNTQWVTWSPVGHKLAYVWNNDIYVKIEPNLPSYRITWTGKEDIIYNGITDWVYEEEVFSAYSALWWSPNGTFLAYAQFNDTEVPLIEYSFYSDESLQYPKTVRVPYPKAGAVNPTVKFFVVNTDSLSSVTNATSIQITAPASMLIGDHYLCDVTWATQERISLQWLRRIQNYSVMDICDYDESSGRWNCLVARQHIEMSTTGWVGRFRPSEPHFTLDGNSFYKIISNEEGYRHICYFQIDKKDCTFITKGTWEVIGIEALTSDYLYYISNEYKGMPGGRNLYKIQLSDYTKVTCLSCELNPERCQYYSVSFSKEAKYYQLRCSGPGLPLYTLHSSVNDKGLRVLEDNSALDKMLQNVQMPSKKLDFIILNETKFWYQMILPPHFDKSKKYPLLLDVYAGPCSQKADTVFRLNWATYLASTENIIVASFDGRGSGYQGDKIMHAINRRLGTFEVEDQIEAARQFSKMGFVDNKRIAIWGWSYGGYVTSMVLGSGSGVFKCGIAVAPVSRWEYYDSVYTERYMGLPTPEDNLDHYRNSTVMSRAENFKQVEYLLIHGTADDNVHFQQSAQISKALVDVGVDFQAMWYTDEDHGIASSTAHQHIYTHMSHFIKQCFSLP
ABCB1: ATP-dependent translocase ABCB1 (ABCB1, Homo sapiens, UniProt P08183)
UniProt P08183, sequence (whole entry, looked up): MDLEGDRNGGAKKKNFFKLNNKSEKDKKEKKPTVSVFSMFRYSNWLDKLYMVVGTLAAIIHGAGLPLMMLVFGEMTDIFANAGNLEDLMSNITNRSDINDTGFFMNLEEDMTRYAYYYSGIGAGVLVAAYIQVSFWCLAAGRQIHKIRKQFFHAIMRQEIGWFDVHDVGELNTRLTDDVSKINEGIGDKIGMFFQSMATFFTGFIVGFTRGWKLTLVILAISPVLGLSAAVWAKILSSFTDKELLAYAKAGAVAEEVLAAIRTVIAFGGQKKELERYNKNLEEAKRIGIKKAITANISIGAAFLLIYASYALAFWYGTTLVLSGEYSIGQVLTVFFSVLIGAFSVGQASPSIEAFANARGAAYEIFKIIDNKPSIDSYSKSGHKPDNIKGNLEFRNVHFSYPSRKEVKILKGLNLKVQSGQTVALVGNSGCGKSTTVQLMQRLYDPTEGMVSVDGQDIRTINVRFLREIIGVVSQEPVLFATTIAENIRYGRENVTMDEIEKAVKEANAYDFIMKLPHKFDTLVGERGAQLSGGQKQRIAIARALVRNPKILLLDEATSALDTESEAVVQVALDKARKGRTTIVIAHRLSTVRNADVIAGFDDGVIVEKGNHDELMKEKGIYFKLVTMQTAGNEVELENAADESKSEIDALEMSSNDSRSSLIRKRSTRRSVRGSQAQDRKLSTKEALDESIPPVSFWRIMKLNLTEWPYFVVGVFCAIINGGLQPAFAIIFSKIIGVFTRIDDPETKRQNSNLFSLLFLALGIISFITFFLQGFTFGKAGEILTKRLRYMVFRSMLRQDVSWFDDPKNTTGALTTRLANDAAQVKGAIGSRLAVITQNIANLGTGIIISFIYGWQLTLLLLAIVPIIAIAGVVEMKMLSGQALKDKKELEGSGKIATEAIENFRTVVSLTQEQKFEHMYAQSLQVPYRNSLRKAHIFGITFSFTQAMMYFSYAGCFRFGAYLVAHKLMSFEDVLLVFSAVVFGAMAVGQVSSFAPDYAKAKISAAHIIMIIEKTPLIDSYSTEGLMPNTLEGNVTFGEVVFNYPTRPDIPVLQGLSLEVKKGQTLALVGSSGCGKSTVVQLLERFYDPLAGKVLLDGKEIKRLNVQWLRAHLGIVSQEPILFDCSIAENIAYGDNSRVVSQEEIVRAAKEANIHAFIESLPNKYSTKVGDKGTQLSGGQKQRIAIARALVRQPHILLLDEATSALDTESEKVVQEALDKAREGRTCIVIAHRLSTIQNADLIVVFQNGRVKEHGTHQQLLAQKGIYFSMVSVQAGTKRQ
CYP2C8: Cytochrome P450 2C8 (CYP2C8, Homo sapiens, UniProt P10632)
UniProt Q96PY6, sequence (whole entry, looked up): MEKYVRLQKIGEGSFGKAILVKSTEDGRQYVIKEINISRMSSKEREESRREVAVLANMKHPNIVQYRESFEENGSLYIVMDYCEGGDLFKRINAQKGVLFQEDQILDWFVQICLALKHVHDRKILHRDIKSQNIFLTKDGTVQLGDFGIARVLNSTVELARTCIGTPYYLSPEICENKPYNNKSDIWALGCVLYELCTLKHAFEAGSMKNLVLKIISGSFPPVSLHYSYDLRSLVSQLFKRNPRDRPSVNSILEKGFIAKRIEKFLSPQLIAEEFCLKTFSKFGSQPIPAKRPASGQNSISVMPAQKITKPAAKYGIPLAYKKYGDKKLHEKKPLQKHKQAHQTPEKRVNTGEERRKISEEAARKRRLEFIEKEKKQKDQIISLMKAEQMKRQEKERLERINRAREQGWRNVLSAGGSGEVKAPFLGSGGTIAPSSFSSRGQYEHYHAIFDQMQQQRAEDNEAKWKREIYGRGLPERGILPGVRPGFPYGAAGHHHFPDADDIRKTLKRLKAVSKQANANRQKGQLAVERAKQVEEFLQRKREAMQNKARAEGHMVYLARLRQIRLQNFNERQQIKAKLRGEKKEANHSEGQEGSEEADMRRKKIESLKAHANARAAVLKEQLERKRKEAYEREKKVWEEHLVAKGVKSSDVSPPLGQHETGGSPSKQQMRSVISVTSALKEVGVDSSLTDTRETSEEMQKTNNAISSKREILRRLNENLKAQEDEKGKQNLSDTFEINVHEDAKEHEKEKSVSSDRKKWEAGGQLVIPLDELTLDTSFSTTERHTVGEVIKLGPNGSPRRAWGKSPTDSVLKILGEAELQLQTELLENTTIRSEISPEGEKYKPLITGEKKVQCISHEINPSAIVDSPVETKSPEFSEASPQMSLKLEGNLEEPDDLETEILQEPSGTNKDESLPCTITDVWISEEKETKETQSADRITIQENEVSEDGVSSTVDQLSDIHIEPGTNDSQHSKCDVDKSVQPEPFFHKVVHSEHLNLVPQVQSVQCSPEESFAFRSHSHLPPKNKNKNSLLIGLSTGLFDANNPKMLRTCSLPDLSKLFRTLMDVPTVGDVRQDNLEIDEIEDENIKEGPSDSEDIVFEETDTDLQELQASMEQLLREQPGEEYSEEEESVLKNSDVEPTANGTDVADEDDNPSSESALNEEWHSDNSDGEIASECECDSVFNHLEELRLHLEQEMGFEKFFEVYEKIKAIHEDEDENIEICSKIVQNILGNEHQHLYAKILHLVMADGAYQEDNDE
UniProt Q86VL8, sequence (whole entry, looked up): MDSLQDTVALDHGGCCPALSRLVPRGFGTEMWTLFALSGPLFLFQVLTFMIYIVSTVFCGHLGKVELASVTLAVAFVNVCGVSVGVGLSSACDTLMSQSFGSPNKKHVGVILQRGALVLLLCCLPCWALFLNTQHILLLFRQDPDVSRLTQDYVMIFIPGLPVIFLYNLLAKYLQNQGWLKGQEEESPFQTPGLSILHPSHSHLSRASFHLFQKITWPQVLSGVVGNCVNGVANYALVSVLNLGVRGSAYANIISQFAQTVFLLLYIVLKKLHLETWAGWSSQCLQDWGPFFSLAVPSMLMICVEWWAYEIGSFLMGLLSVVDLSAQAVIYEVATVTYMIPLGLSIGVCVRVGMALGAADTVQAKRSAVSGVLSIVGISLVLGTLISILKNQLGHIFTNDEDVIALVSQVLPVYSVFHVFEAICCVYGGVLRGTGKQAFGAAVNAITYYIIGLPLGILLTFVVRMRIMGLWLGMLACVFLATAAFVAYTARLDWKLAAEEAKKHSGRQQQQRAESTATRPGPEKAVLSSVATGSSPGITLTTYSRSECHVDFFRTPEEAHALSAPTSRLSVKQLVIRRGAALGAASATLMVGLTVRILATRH
UniProt Q04771, sequence (whole entry, looked up): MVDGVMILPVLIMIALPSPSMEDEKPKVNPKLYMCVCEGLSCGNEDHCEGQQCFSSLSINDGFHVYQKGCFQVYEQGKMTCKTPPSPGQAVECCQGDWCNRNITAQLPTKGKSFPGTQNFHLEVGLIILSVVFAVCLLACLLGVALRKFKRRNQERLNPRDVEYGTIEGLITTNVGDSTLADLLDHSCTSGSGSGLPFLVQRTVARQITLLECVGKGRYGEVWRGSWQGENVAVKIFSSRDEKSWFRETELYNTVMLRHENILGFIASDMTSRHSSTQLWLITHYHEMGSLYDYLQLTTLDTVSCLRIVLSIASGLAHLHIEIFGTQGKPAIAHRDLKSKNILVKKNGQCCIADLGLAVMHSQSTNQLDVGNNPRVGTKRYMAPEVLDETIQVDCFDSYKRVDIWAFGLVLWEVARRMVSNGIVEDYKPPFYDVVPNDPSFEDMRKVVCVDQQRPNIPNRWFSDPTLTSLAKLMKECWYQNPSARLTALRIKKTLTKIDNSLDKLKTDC
UniProt P11712, sequence (whole entry, looked up): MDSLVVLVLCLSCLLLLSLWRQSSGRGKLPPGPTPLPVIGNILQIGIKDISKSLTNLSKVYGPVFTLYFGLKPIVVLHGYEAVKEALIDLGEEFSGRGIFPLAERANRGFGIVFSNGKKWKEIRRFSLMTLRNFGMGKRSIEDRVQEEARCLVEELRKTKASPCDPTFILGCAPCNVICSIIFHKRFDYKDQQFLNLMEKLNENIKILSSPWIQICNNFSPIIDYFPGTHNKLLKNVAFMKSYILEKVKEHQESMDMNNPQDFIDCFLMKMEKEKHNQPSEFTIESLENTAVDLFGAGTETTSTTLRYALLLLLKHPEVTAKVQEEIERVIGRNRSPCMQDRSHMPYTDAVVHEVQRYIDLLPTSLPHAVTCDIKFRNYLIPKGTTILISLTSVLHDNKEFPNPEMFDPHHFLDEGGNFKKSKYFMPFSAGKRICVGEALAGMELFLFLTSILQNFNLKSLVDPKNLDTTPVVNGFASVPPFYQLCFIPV

With `CCCCCn1ccc(C(=O)NC(C)(C)c2ccc(CNC(C)=O)cc2)n1` the CYP induction was under 10% (CYP2B6 human; RT-qPCR, measured: CYP2B6 mRNA; HepaRG; concentration not given; reference: positive control).
`CC[C@H](C)[C@H](NC(=O)[C@H](Cc1ccccc1)NC(=O)[C@H](CCC(=O)O)NC(=O)[C@H](CCCCN)NC(=O)[C@H](C)NC(=O)[C@H](C)NC(=O)[C@H](CCC(N)=O)NC(=O)CNC(=O)[C@H](CCC(=O)O)NC(=O)[C@H](CC(C)C)NC(=O)[C@H](Cc1ccc(O)cc1)NC(=O)[C@H](CO)NC(=O)[C@H](CO)NC(=O)[C@@H](NC(=O)[C@H](CC(=O)O)NC(=O)[C@H](CO)NC(=O)[C@@H](NC(=O)[C@H](Cc1ccccc1)NC(=O)[C@@H](NC(=O)CNC(=O)[C@H](CCC(=O)O)NC(=O)[C@H](C)NC(=O)[C@@H](N)Cc1c[nH]cn1)[C@@H](C)O)[C@@H](C)O)C(C)C)C(=O)N[C@@H](C)C(=O)N[C@@H](Cc1c[nH]c2ccccc12)C(=O)N[C@@H](CC(C)C)C(=O)N[C@H](C(=O)N[C@@H](CCCCN)C(=O)NCC(=O)N[C@@H](CCCNC(=N)N)C(=O)NCC(=O)N[C@@H](Cc1ccccc1)C(=O)N[C@@H](Cc1ccccc1)C(=O)NCC(=O)O)C(C)C` gave a remaining peptide of about 86% (DPP-4 (recombinant); substrate, LC-MS; 500 µM, 12 h).
The inhibition of `CC(C)[C@H]1NC(=O)C[C@H]2/C=C/CCSSC[C@@H](NC1=O)C(=O)N[C@H](Cc1cccc3ccccc13)C(=O)NCC(=O)O2` is reported as -10.8% (NIM1K (Homo sapiens, UniProt Q8IY84); enzyme activity, inhibitor; 10 µM).
`CNC(=O)C1OC(n2cnc3c(NCc4cccc(I)c4)ncnc32)C(O)C1O` (stereo not shown) has an inhibition of 85% (SLC47A2 (Homo sapiens, UniProt Q86VL8); transport, inhibitor; transiently transfected cells; 100 µM, 10 (unit not given), added: thiamine).
For `CC[C@H](C)[C@H](NC(=O)[C@H](Cc1ccccc1)NC(=O)[C@H](CCC(=O)O)NC(=O)[C@H](CCCCN)NC(=O)[C@H](C)NC(=O)[C@H](C)NC(=O)[C@H](CCC(N)=O)NC(=O)CNC(=O)[C@H](CCC(=O)O)NC(=O)[C@H](CC(C)C)NC(=O)[C@H](Cc1ccc(O)cc1)NC(=O)[C@H](CO)NC(=O)[C@H](CO)NC(=O)[C@@H](NC(=O)[C@H](CC(=O)O)NC(=O)[C@H](CO)NC(=O)[C@@H](NC(=O)[C@H](Cc1ccccc1)NC(=O)[C@@H](NC(=O)CNC(=O)N(CCC(=O)O)NC(=O)[C@H](C)NC(=O)N(N)Cc1c[nH]cn1)[C@@H](C)O)[C@@H](C)O)C(C)C)C(=O)N[C@@H](C)C(=O)N[C@@H](Cc1c[nH]c2ccccc12)C(=O)N[C@@H](CC(C)C)C(=O)N[C@H](C(=O)N[C@@H](CCCNC(=N)N)C(=O)NCC(=O)N[C@@H](CCCNC(=N)N)C(=O)NCC(=O)O)C(C)C`, the remaining peptide was 100% (DPP4; HPLC-UV; Tris-HCl; 0.1 mM, 8 h, pH 7.4, 37 °C, added: DPP4 16 nM).
For `COc1ccccc1-c1n[nH]c2nc(NC3CCN(C(=O)Cc4ccc(F)cc4F)CC3)ncc12`, the relative abundance was 1.04 (bead binding, competition bead pull-down, measured: LINJ.24.2150; Leishmania donovani extract; 10 µM; reference: vehicle).
`CC(=O)NCCCC[C@@H]1NC(=O)[C@H](Cc2c[nH]c3c(C)cccc23)NC(=O)[C@H]([C@@H](C)O)NC(=O)[C@H](CC(N)=O)NC(=O)[C@@H](NC(C)=O)C(C)(C)SSC(C)(C)[C@@H](C(=O)N[C@@H](Cc2ccc(OCCN)cc2)C(=O)N[C@@H](Cc2ccc3ccccc3c2)C(=O)NC2(C(=O)N[C@@H](CCC(=O)O)C(=O)N[C@@H](CC(N)=O)C(=O)N[C@@H](Cc3cccnc3)C(=O)N(C)CC(N)=O)CCOCC2)NC1=O` has an efflux ratio of 16.2 (ABCB1; transport, inhibitor; LLC-PK1 expressing MDR1; 10 µM, 90 min, added: [3H]digoxin).
`CC(C)(C)C(=O)OCOP(=O)(OCOC(=O)C(C)(C)C)C1CCCN(O)C1=O` (stereo not shown) has a log LC50 of -4.92 log M (SK-MEL-5).
For `CNC(=O)C1CCCN(C(=O)C2CC3CCC2N3C(=O)[C@@H]2C[C@@H](O)CN2C(=O)NCc2cccc(Cl)c2F)C1` (mixture of isomers), the remaining activity was 99.9% (CYP3A4 (human); inhibitor, time-dependent inhibition; 0.206 µM, preincubated without NADPH, added: midazolam substrate; reference: negative control).
`C[C@@H](c1ccc2nccn2c1)n1nnc2nc(O)c(-c3cnn(C)c3)nc21` gave an IC50 of 37 µM (human CYP3A4/5; inhibitor; pooled human liver microsomes; reversible inhibition, added: testosterone substrate).
`O=C1NC2(CC2)COc2ncc(F)cc2[C@H]2COCCN2c2ccn3ncc1c3n2`: “serum total protein” 56.2 ± 2.1 g/L (Sprague-Dawley rat, male, serum; oral, 2.5 mg/kg/day, end of treatment, 4-week subacute toxicity).
For `CC[C@H](C)[C@H](NC(=O)[C@H](Cc1ccccc1)NC(=O)[C@H](CCC(=O)O)NC(=O)[C@H](CCCCN)NC(=O)[C@H](C)NC(=O)[C@H](C)NC(=O)[C@H](CCC(N)=O)NC(=O)CNC(=O)[C@H](CCC(=O)O)NC(=O)[C@H](CC(C)C)NC(=O)[C@H](Cc1ccc(O)cc1)NC(=O)[C@H](CO)NC(=O)[C@H](CO)NC(=O)[C@@H](NC(=O)[C@H](CC(=O)O)NC(=O)[C@H](CO)NC(=O)[C@@H](NC(=O)[C@H](Cc1ccccc1)NC(=O)[C@@H](NC(=O)CNC(=O)[C@H](CCC(=O)O)NC(=O)C(C)(C)NC(=O)N(N)Cc1c[nH]cn1)[C@@H](C)O)[C@@H](C)O)C(C)C)C(=O)N[C@@H](C)C(=O)N[C@@H](Cc1c[nH]c2ccccc12)C(=O)N[C@@H](CC(C)C)C(=O)N[C@H](C(=O)N[C@@H](CCCNC(=N)N)C(=O)NCC(=O)N[C@@H](CCCNC(=N)N)C(=O)NCC(=O)O)C(C)C`, the remaining peptide was 100% (DPP4; HPLC-UV; Tris-HCl; 0.1 mM, 8 h, pH 7.4, 37 °C, added: DPP4 16 nM).
`CS(C)(=O)=Nc1ccc(-c2ccc(-c3nc4cc(O[C@@H]5CO[C@H]6[C@@H]5OC[C@H]6O)[nH]c4cc3F)cc2)cc1` has an inhibition of -18% (ACVR1 (Homo sapiens, UniProt Q04771); enzyme activity, inhibitor; 10 µM).
`Cc1cc(-c2ccc3ccccc3c2)nnc1NCCN1CCN(C)CC1` gave a half-life of over 1 h (CYP2C8; substrate; recombinant enzyme; 100 nM).
With `CCN(CC)CCOc1ccc(-c2nnn(Cc3ccc(OC)cc3)c2N)cc1` the IC50 was over 50 µM (CYP2C8; inhibitor).
`N#Cc1c(Cl)ccc2c1C1(CCN(C(=O)c3cnc4[nH]ncc4c3)CC1)C(=O)N2CC(=O)NCC(F)(F)F` gave an IC50 of 6 µM (Cytochrome P450 2C9 (CYP2C9, Homo sapiens, UniProt P11712); enzyme activity, inhibitor).
For `C[C@@H](c1ccc2nccn2c1)n1nnc2ncc(-c3cn[nH]c3)nc21`, the IC50 was over 50 µM (human CYP3A4/5; inhibitor; pooled human liver microsomes; reversible inhibition, added: midazolam substrate).
For `CN(C)[C@H]1C[C@@]23CC[C@@]4(O2)C(=CC[C@]2(C)[C@@H](c5ccc6ccncc6c5)CC[C@H]24)C=C3[C@@H](O)[C@@H]1O`, the inhibition was 2.5% (NEK1 (Homo sapiens, UniProt Q96PY6); ATP probe labelling, inhibitor, KiNativ profiling; 1 µM).
`CSc1nc2[nH]nc([N+](=O)[O-])c(=O)n2n1` has an inhibition of 58.1% (ABCB1; transport, inhibitor; 100 µM, 5 (unit not given), pH 7, added: NMN).

Repeated from above:
`CSc1nc2[nH]nc([N+](=O)[O-])c(=O)n2n1` has an inhibition of 58.1% (ABCB1; transport, inhibitor; 100 µM, 5 (unit not given), pH 7, added: NMN).
`CNC(=O)C1OC(n2cnc3c(NCc4cccc(I)c4)ncnc32)C(O)C1O` (stereo not shown) has an inhibition of 85% (SLC47A2 (Homo sapiens, UniProt Q86VL8); transport, inhibitor; transiently transfected cells; 100 µM, 10 (unit not given), added: thiamine).
